Measured values gathered from unrelated publications.
Protocols differ between the studies behind these lines.
Target: Carbonic anhydrase 12 (CA12, Homo sapiens, UniProt O43570)
UniProt O43570, sequence (whole entry, looked up): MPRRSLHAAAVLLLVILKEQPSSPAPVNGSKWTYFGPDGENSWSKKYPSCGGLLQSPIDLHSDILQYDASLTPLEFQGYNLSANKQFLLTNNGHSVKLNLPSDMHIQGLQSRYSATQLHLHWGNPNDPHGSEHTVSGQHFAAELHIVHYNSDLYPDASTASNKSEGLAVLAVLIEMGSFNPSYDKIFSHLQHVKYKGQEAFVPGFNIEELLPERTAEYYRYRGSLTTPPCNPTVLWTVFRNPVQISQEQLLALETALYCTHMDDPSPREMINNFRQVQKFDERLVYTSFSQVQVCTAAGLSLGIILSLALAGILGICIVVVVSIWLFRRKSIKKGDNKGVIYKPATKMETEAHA

| Compound | assay | conditions | endpoint | result |
| --- | --- | --- | --- | --- |
| NS(=O)(=O)c1ccc(CCn2c(SCC(=O)N/N=C/c3ccccc3O)nc3ccccc3c2=O)cc1 | enzyme activity, inhibitor, stopped-flow |  | Ki | 10.2 nM |
| NS(=O)(=O)c1ccc(Nc2nc3nccc(-c4ccc5ccccc5c4)n3n2)cc1 | enzyme activity, inhibitor, stopped-flow |  | Ki | 62.5 nM |
| COC(=O)CCCNC(=O)c1cc(S(N)(=O)=O)c(Cl)cc1NC1CCCCC1 | thermal shift | pH 7.0, 37 °C | Kd | 20 nM |
| COCCOc1cc2ncnc(Nc3cccc(-c4cn(-c5ccccc5S(N)(=O)=O)nn4)c3)c2cc1OCCOC | enzyme activity, inhibitor, stopped-flow |  | Ki | 28 nM |
| COc1cccc(/C(C)=N/NC(=O)CSc2nc3ccccc3c(=O)n2CCc2ccc(S(N)(=O)=O)cc2)c1 | enzyme activity, inhibitor, stopped-flow |  | Ki | 80.1 nM |
| Cc1ccc(S(=O)(=O)Nc2ccccc2Sc2ccccc2)cc1 | enzyme activity, inhibitor |  | IC50 | 1360 nM |
| COc1ccccc1/C=N/NC(=O)CSc1nc2ccccc2c(=O)n1CCc1ccc(S(N)(=O)=O)cc1 | enzyme activity, inhibitor, stopped-flow |  | Ki | 64.8 nM |
| NS(=O)(=O)c1cc(C(=O)NCCCC(=O)O)c(NC2CCCCC2)cc1Cl | thermal shift | pH 7.0, 37 °C | Kd | 19 nM |
| Cc1cc(C)cc(C(=O)Nc2cccc(S(N)(=O)=O)c2)c1 | enzyme activity, inhibitor, absorbance |  | IC50 | 9170 nM |
| NS(=O)(=O)c1ccc(N2N=C(c3ccccc3O)CC2c2ccc(Br)cc2)cc1 (stereo not drawn) | enzyme activity, inhibitor, absorbance |  | IC50 | 8360 nM |
| Cc1ccc(S(=O)(=O)NC(C)c2ccccc2)cc1 (stereo not drawn) | enzyme activity, inhibitor |  | IC50 | 1960 nM |
| COCCOc1cc2ncnc(Nc3cccc(-c4cn(CCc5ccc(S(N)(=O)=O)cc5)nn4)c3)c2cc1OCCOC | enzyme activity, inhibitor, stopped-flow |  | Ki | 353 nM |
| COc1ccc(O)c(C2=NN(c3ccc(S(N)(=O)=O)cc3)C(c3ccc(Br)cc3)C2)c1 (stereo not drawn) | enzyme activity, inhibitor, absorbance |  | IC50 | 4260 nM |
| COc1cc(-c2ccnc3nc(Nc4ccc(S(N)(=O)=O)cc4)nn23)cc(OC)c1OC | enzyme activity, inhibitor, stopped-flow |  | Ki | 31.9 nM |
| CC(=O)Nc1ccc(S(=O)(=O)N2CCN(C(=O)c3cc4ccccc4oc3=O)CC2)cc1 |  |  | Ki | 42300 nM |

Repeated from above:
| Compound | assay | conditions | endpoint | result |
| --- | --- | --- | --- | --- |
| Cc1cc(C)cc(C(=O)Nc2cccc(S(N)(=O)=O)c2)c1 | enzyme activity, inhibitor, absorbance |  | IC50 | 9170 nM |
| COc1cccc(/C(C)=N/NC(=O)CSc2nc3ccccc3c(=O)n2CCc2ccc(S(N)(=O)=O)cc2)c1 | enzyme activity, inhibitor, stopped-flow |  | Ki | 80.1 nM |
